Published values from different studies.
Every numbered part comes from another study and shows a few of its results, in no order. Substitutions count along the parent as printed.
Sequence of UniProt Q9P1W9 (whole entry, looked up): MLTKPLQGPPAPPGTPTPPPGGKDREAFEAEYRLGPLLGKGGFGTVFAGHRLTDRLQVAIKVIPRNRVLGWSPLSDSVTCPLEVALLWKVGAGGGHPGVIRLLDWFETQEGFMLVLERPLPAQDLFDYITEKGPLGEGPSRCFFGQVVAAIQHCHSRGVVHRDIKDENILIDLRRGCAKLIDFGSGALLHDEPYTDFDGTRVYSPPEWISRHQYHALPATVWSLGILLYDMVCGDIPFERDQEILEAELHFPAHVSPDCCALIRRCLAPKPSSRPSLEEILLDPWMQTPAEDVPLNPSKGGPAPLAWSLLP
Sequence of UniProt Q13163 (whole entry, looked up): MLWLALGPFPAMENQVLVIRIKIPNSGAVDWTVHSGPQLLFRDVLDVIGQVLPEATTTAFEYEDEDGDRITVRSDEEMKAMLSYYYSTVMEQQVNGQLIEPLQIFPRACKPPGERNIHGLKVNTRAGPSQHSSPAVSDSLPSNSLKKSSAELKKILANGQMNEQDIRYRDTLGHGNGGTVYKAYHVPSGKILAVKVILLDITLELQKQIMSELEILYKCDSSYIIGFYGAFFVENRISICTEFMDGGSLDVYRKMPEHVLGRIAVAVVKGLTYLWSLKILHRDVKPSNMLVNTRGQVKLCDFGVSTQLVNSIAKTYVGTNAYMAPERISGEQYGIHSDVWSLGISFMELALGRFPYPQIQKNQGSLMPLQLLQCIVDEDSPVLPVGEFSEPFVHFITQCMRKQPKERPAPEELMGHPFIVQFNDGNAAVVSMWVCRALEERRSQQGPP
Sequence of UniProt Q06187 (whole entry, looked up): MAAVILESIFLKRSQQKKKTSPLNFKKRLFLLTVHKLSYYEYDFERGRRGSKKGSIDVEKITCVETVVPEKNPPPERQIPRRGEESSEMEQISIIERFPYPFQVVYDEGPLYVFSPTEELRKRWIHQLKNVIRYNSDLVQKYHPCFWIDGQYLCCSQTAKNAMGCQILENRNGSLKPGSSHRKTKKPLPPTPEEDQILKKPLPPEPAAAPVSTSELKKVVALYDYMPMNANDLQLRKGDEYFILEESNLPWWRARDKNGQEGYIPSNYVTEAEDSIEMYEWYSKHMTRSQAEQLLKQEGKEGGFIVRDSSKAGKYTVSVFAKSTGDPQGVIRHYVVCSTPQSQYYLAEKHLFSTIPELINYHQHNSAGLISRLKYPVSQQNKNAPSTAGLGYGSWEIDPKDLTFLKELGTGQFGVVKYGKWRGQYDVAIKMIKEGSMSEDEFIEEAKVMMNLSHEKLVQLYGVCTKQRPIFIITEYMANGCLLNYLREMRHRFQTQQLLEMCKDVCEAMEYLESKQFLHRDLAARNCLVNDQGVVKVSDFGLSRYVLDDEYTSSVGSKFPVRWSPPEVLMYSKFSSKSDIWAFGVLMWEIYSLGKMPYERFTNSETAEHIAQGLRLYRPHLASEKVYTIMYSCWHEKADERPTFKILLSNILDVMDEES
Sequence of UniProt O75914 (whole entry, looked up): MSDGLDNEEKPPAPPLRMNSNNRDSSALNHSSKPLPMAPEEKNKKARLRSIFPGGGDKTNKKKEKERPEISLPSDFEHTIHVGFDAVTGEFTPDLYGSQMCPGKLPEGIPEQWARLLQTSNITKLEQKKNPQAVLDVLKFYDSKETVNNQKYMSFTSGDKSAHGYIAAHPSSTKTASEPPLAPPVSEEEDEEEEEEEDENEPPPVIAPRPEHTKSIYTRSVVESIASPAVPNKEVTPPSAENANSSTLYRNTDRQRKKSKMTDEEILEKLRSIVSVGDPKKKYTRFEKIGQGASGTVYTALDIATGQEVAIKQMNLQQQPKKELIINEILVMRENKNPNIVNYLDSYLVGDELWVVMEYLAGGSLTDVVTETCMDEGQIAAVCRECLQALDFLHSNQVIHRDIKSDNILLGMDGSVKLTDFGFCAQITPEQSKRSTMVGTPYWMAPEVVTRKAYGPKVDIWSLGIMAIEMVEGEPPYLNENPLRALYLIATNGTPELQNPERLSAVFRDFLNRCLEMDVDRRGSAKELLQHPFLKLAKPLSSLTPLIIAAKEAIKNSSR
Sequence of UniProt P23458 (whole entry, looked up): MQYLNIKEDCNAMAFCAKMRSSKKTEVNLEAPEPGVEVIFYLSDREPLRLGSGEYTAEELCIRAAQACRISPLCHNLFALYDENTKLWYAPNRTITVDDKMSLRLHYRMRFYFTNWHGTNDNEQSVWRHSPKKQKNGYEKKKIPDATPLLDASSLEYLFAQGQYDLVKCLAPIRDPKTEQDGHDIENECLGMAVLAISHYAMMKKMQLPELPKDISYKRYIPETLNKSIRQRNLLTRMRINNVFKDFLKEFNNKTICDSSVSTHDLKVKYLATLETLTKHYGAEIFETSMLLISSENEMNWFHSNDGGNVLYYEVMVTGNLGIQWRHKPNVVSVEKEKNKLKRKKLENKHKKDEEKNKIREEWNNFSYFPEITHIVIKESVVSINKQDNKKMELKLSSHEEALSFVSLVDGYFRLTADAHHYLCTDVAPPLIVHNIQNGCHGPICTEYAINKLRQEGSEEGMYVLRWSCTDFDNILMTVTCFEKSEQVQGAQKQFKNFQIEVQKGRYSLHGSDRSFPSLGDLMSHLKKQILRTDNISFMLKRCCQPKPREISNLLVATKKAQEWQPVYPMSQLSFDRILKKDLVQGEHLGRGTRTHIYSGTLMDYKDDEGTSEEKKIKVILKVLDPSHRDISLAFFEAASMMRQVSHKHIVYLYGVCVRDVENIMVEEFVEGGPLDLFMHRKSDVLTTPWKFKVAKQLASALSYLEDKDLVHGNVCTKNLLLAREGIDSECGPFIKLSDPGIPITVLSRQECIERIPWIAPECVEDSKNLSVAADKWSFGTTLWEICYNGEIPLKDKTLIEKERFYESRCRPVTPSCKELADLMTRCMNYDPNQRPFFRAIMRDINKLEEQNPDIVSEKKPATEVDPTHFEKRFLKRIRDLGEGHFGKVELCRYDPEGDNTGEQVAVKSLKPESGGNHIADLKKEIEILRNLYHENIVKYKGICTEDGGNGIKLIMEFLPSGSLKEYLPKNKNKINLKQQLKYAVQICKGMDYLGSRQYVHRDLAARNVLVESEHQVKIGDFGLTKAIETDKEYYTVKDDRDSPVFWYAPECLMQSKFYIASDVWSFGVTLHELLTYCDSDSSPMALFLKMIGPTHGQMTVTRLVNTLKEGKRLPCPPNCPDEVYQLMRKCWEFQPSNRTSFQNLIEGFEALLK
Sequence of UniProt P49761 (whole entry, looked up): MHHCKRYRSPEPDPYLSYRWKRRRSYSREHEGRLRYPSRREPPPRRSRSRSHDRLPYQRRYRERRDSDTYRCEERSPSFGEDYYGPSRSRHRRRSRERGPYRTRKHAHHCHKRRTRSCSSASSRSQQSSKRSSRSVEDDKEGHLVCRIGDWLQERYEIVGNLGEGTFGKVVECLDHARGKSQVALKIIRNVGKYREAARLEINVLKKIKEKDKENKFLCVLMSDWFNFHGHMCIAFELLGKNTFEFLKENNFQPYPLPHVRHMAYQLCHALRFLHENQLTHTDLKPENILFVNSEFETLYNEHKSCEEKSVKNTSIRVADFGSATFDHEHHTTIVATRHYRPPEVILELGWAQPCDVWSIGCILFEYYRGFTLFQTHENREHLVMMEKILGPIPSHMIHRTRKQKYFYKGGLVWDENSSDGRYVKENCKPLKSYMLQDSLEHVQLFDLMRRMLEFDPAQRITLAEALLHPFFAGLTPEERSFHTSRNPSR
Sequence of UniProt Q9BXA7 (whole entry, looked up): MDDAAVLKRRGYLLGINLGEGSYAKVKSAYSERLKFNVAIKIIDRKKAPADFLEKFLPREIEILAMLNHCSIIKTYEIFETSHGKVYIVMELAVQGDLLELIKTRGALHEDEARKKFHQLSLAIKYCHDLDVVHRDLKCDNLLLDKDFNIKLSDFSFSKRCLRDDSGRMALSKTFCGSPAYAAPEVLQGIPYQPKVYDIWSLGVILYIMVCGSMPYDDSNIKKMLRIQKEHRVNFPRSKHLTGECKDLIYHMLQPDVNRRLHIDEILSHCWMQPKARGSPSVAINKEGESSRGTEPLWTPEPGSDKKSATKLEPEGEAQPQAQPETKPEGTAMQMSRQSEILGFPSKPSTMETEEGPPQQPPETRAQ
Sequence of UniProt Q8WTQ7 (whole entry, looked up): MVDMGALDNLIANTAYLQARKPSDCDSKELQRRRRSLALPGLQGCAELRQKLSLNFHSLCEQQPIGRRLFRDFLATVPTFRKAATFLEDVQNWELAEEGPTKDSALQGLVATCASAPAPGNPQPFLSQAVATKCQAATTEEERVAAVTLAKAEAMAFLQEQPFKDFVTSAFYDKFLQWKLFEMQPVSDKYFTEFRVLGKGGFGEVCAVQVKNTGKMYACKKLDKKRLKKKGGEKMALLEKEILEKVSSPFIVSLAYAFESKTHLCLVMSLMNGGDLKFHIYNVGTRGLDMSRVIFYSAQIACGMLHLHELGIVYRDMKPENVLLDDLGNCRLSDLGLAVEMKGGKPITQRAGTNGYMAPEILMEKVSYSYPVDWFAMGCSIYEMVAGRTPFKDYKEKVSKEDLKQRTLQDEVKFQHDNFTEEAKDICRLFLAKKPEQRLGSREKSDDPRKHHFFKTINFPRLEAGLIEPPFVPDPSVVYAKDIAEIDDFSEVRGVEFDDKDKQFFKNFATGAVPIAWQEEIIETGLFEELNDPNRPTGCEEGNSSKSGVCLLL

Sample 1 — target: ATF3, bZIP domain (human); technique: DHFR protein complementation; medium: yeast; baseline: wild-type JUN-FOS pair; direction: higher = stronger binding
Setting: single substitutions, most at no-binding floor
Starting sequence: JUN, bZIP domain (human); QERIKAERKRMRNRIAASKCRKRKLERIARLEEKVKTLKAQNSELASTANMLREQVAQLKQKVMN; partner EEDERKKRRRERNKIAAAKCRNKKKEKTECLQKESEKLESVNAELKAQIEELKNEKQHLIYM
`E32R` has a binding fitness of -0.151 natural log.
For `V56R`, the binding fitness was -1.34 natural log.
For `Q55G`, the binding fitness was -0.844 natural log.
For `A49P`, the binding fitness was -1.55 natural log.
`N42C` gave a binding fitness of -0.636 natural log.
With `L38Q` the binding fitness was -0.363 natural log.
With `L52T` the binding fitness was -1.01 natural log.
With `K36H` the binding fitness was -0.235 natural log.

Sample 2 — technique: competition with immobilised ligand; tested at: 1 µM
Compound: COc1cccc(CNC(=O)c2nc3scc(COCc4ccc(C(=O)O)cc4)c3c(=O)[nH]2)c1
It gave 80.2% for remaining binding (FGFR3 (Homo sapiens, UniProt P22607, G697C); cell-free assay).
It gave 100% for remaining binding (NEK1 (Homo sapiens, UniProt Q96PY6); cell-free assay).
For LCK (Homo sapiens, UniProt P06239); cell-free assay: remaining binding read 100%.
MINK1 (Homo sapiens, UniProt Q8N4C8); cell-free assay — remaining binding: 74.9%.
MAP2K5 (Homo sapiens, UniProt Q13163); cell-free assay — remaining binding: 100%.
The remaining binding was 100% (CLK3 (Homo sapiens, UniProt P49761); cell-free assay).
MAPK7 (Homo sapiens, UniProt Q13164); cell-free assay — remaining binding: 99.3%.
CAMKK1 (Homo sapiens, UniProt Q8N5S9); cell-free assay — remaining binding: 100%.
It gave 100% for remaining binding (PIM2 (Homo sapiens, UniProt Q9P1W9); cell-free assay).
For GRK7 (Homo sapiens, UniProt Q8WTQ7); cell-free assay: remaining binding read 67%.
For STK25 (Homo sapiens, UniProt O00506); cell-free assay: remaining binding read 100%.
It gave 86.4% for remaining binding (Tyrosine-protein kinase ABL1, non-phosphorylated (ABL1, Homo sapiens, UniProt P00519, Q252H); cell-free assay).
For TSSK3 (Homo sapiens, UniProt Q96PN8); cell-free assay: remaining binding read 81.4%.
BTK (Homo sapiens, UniProt Q06187); cell-free assay — remaining binding: 63%.
It gave 98.2% for remaining binding (NEK9 (Homo sapiens, UniProt Q8TD19); cell-free assay).
For Tyrosine-protein kinase JAK1, JH1 (JAK1, Homo sapiens, UniProt P23458); cell-free assay: remaining binding read 93.9%.
It gave 83% for remaining binding (Tyrosine-protein kinase ABL1, phosphorylated (ABL1, Homo sapiens, UniProt P00519, E255K); binding).
The remaining binding was 88% (Myosin-IIIa (MYO3A, Homo sapiens, UniProt Q8NEV4); cell-free assay).
For Myosin-IIIb (MYO3B, Homo sapiens, UniProt Q8WXR4); cell-free assay: remaining binding read 100%.
It gave 51.9% for remaining binding (PAK3 (Homo sapiens, UniProt O75914); cell-free assay).
It gave 100% for remaining binding (PIK3CA (Homo sapiens, UniProt P42336, C420R); cell-free assay).
It gave 88.2% for remaining binding (TSSK1B (Homo sapiens, UniProt Q9BXA7); cell-free assay).
For ULK3 (Homo sapiens, UniProt Q6PHR2); cell-free assay: remaining binding read 76%.
For PRKD1 (Homo sapiens, UniProt Q15139); cell-free assay: remaining binding read 100%.
OXSR1 (Homo sapiens, UniProt O95747); cell-free assay — remaining binding: 71.9%.

Sample 3 — technique: protein-binding microarray; molecule type: double-stranded DNA, one strand shown; medium: in vitro; tested at: not given; direction: higher = stronger binding
Target: Protein C-ets-1 (ETS1, Homo sapiens, UniProt P14921, residues 1-441, full length assumed)
Sequence of UniProt P14921 (whole entry, looked up): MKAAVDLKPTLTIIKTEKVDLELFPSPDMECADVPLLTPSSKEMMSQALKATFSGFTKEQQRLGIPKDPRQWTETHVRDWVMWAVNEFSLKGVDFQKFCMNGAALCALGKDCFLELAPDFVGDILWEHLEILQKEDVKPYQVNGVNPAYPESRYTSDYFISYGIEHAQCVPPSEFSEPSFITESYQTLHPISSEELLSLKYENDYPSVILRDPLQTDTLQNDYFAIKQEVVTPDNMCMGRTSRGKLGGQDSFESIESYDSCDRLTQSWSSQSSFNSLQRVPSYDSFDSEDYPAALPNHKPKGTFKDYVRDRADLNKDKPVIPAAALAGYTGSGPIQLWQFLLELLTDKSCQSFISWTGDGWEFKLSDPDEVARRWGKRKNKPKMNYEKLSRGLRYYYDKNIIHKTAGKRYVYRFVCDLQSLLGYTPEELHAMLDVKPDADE
Setting: k-mer, scored over probes, only values ≥0.25
The E-score of `AGGGAAGC` is reported as 0.33.
`TATTTCCA` gave an E-score of 0.351.
`CGGAAGCA` gave an E-score of 0.478.
`CCTGTTTC` has an E-score of 0.327.
`GCATATCC` gave an E-score of 0.421.
The E-score of `GCAAAGGA` is reported as 0.277.
`CCACCGGA` has an E-score of 0.46.
The E-score of `GCAGGGAA` is reported as 0.263.

Sample 4 — effect on: enzyme activity; action: inhibitor; tested at: 0.5 µM; baseline: control
Target: Serine/threonine-protein kinase pim-2 (PIM2, Homo sapiens, UniProt Q9P1W9)
Nc1ccc2ncnc(NCCc3ccc(Oc4ccccc4)cc3)c2c1 gave a remaining activity of 119%.
With CCOC(=O)c1c(C)[nH]c(/C=C2\C(=O)Nc3ccccc32)c1C the remaining activity was 97.7%.
For Nc1[nH]nc2nc3ccccc3nc12, the remaining activity was 105%.
The remaining activity of COc1ccc(OC)c2c(=S)c3ccccc3[nH]c12 is reported as 103%.
Cn1sc(=O)n(Cc2ccccc2)c1=O gave a remaining activity of 107%.
With Cn1c2ccccc2c2c3c(c4c5ccccc5n(CCC#N)c4c21)CNC3=O the remaining activity was 101%.
Cc1nc(-c2ccccc2)c(-c2ccncc2)o1 gave a remaining activity of 110%.
With O=C(O)c1ccc2c3c1cccc3c(=O)n1c3ccccc3nc21 the remaining activity was 41.7%.
OCC(O)CCON=C1C(c2c(O)[nH]c3ccccc23)=Nc2ccccc21 (stereo not shown) has a remaining activity of 99.5%.
With CN(C)c1ccc(C=C2C(=O)Nc3ccccc32)cc1 the remaining activity was 82.4%.
CC(C)[C@H](CO)Nc1nc(Nc2cc(N)cc(Cl)c2)c2ncn(C(C)C)c2n1 has a remaining activity of 113%.
O=S(=O)(c1cccc2cnccc12)N1CCCNCC1 gave a remaining activity of 93.2%.
With COc1ccc(CNC(=O)Nc2ncc([N+](=O)[O-])s2)cc1 the remaining activity was 94.5%.
For Nc1ncnc2n[nH]c(Nc3ccc(F)cc3)c12, the remaining activity was 89.3%.

Excerpt of the above (sample 3):
`TATTTCCA` gave an E-score of 0.351.
`CGGAAGCA` gave an E-score of 0.478.
`CCTGTTTC` has an E-score of 0.327.
`GCATATCC` gave an E-score of 0.421.
